Experimental data from different studies.
Lines come from different studies, so protocols differ. ± marks the error that the study gave. ≈ marks a conversion by molar mass, not a printed value.

O=C(Nc1ncc(-c2ccccc2)s1)C1CCCC1  MIC (Histoplasma capsulatum; microbial growth): > 20 µM
Nc1ncnc2c([C@@H]3N[C@H](CO)[C@@H](O)[C@H]3O)c[nH]c12  infected cells (Marburg virus; viral replication, antibody staining; HeLa, Musoke; 0.4 µM, 24 h): 12.9%
CN1CCCC(CC2c3ccccc3Sc3ccccc32)C1 (centres unmarked)  EC50 (SARS-CoV-2; viral replication, high-content imaging screen; cell-based): > 100 µM
CC(C)OC(=O)[C@@H](N)Cc1ccc(OP2(=O)CO[C@@H](Cn3ccc(N)nc3=O)CO2)cc1 (some centres unmarked)  IC50 (vaccinia virus; viral replication): 30 µM
CCc1c(C(=O)C(N)=O)c2c(OCC(=O)O)cccc2n1Cc1ccccc1  survival (Daboia russelii; mouse; intravenous, 120 µg/mouse, 24 h, drug mixture, added: KA venom 2.5 x LD50 preincubated): 0%
O=C(CCC1CCCCC1)Nc1nc(-c2ccccc2)cs1  MIC (Histoplasma capsulatum; microbial growth): > 20 µM
CCCCN(CCCNC(=O)c1cc(Nc2ccc(OC)c(OC)c2)nc2ccccc12)Cc1ccccc1  maximum response (SARS-CoV-2; cytopathic effect; USA_WA1/2020; round 2, 5-point): 60%
COc1cc2c(cc1OC)C(c1cccc(Cl)c1)=NN=C(C)C2  EC50 (SARS-CoV-2; viral replication, GFP plate reader screen; cell-based): > 100 µM
Cc1cccc(CN2CCN(C(c3ccccc3)c3ccc(Cl)cc3)CC2)c1 (centres unmarked)  IC50 (Marburg virus; HIV/MARV pseudovirion entry; A549; 48 h): 10.2 ± 3.7 µM
CCC1(CC)C(=O)NCC(C)C1=O (centres unmarked)  EC50 (SARS-CoV-2; viral replication, GFP plate reader screen; cell-based): 18.4 µM
O=C(Nc1ccc(N2CCN(C(=O)c3cnccn3)CC2)nc1)c1cccc([N+](=O)[O-])c1  IC90 (Mycobacterium tuberculosis; bacterial growth; H37Ra-lux; 168 h): > 64 µM
CC(C)C[C@@H]1NC(=O)c2coc(n2)[C@H](Cc2ccccc2)NC(=O)CN(C(=O)CN(C)C2CCCC2)CCNC(=O)c2csc1n2  Emax (Lassa mammarenavirus; viral replication; Huh-7; concentration not given): 98.4%
CNC(=NCCSCc1csc(N=C(N)N)n1)NC#N  selectivity index (Ebola virus Zaire; pseudovirus entry; A549; baseline: CC50 over IC50): 1
CC(C)(C)NC(=O)[C@@H]1C[C@@H]2CCCC[C@@H]2CN1C[C@@H](O)[C@H](Cc1ccccc1)NC(=O)[C@H](CC(N)=O)NC(=O)c1ccc2ccccc2n1  EC50 (SARS-CoV-2; viral replication, high-content imaging screen; cell-based): > 100 µM
[O-][N+]1=C(c2ccc(Cl)cc2)C2=NCCN2c2ccccc21  MIC90 (Clostridium perfringens): 1 µg/mL (≈ 3.36 µM)
COc1ccc2cc1Oc1ccc(cc1)C[C@H]1c3c(cc4c(c3Oc3cc5c(cc3OC)CCN(C)[C@@H]5C2)OCO4)CCN1C  viral load (African swine fever virus; pig, organs and swabs; dose not given): no effect
COc1ccc2cc(-c3cc(-c4cc(Cl)cc(Cl)c4)nn3[C@@H](C)c3ccc(C(=O)NCCC(=O)O)cc3)ccc2c1  EC50 (SARS-CoV-2; viral replication, high-content imaging screen; cell-based): > 100 µM
c1ccc2nc(N3CCCC(c4nccn4CC4CCC4)C3)ccc2c1 (centres unmarked)  remaining activity (Lassa mammarenavirus; viral replication; Huh-7; 10 µM, 72 h): 29%
CN(C)CCOC(C)(c1ccccc1)c1ccccn1 (centres unmarked)  IC50 (Marburg virus; HIV/MARV pseudovirion entry; A549; 48 h): > 100 µM
CCC(CC)COC(=O)[C@H](C)N[P@](=O)(OC[C@H]1O[C@@](C#N)(c2ccc3c(N)ncnn23)[C@H](O)[C@@H]1O)Oc1ccccc1  EC90 (SARS-CoV; viral replication; Vero C1008): 2.7 µM
CC(C)Cn1c(CN(C)Cc2ncc[nH]2)nc2ccccc21  remaining activity (Lassa mammarenavirus; viral replication; Huh-7; 10 µM, 72 h): 42%
O=c1nc(NO)ccn1[C@@H]1O[C@H](CO)[C@@H](O)[C@H]1O  EC90 (SARS-CoV-2 Washington strain; viral replication, qRT-PCR; Caco-2): 12.2 ± 12.4 µM
COc1cccc(C2(C(=O)N3CCC4(CC3)CC(CNS(=O)(=O)N(C)C)CCO4)CCCC2)c1 (centres unmarked)  EC50 (Venezuelan equine encephalitis virus; viral replication): 20 µM
CCOc1ccc(NC(=O)c2cnn(-c3ccc(C)c(Cl)c3)c2C2CCNCC2)cc1  AC50 (SARS-CoV-2; cytopathic effect, cell-based CPE; USA_WA1/2020; round 1, 5-point dilution): 12.6 µM
CNCc1ccc(C)c(NC(=O)c2ccc(Nc3nc(-c4ccccc4)c4ccccc4n3)cc2)c1  EC50 (SARS-CoV-2; viral replication, GFP plate reader screen; cell-based): 2.95 µM
CCCCCCOc1ccc(C(=O)NCC2CCOC3(CCN(C(=O)C4(c5ccccc5)CCCC4)CC3)C2)cc1 (centres unmarked)  inhibition (Venezuelan equine encephalitis virus; viral replication; 40 µM): 60%
O=C(O[C@@H]1Cc2c(O)cc(O)cc2O[C@@H]1c1cc(O)c(O)c(O)c1)c1cc(O)c(O)c(O)c1  inhibition (Severe acute respiratory syndrome coronavirus 2; cytopathic effect, inhibitor; Vero C1008; 25 µM): 16.7%
C#C[C@]1(OC(C)=O)CC[C@H]2[C@@H]3CCC4=CC(=NO)CC[C@@H]4[C@H]3CC[C@@]21CC (mixture of isomers)  EC50 (SARS-CoV-2; viral replication, GFP plate reader screen; cell-based): > 100 µM
CCCCN(C)CCNC(=O)c1cc(-c2ccc(Cl)s2)nc2ccccc12  AC50 (SARS-CoV-2; cytopathic effect, cell-based CPE; USA_WA1/2020; round 1, 5-point dilution): 4.47 µM
COc1ccc2cc(-c3n[nH]cc3CNC3(c4ccccc4)CC3)ccc2c1  remaining activity (Lassa mammarenavirus; viral replication; Huh-7; 10 µM, 72 h): 49%
CNC(=O)[C@@H](NC(=O)[C@H](CC(C)C)[C@H](O)C(=O)NO)C(C)(C)C  viability difference (Daboia russelii; C2C12; 100 µM, added: Daboia russelii venom AP; baseline: venom alone): -75.4%
O=C1c2c(O)c(=O)ccn2N([C@@H]2c3ccccc3SCc3c2ccc(F)c3F)[C@@H]2COCCN12  EC50 (Influenza A virus; viral replication, plaque reduction; A(H7N7); mean): 0.00032 ± 7e-05 µM
Cc1nc2n(n1)CC(=O)N[C@@H](C(C)C)CN(C(=O)COC(C)C)CC(=O)N[C@@H](CC(C)C)c1nc(cs1)C(=O)N[C@H]2Cc1ccccc1  remaining activity (Lassa mammarenavirus; viral replication; Huh-7; 10 µM, 72 h): 112%
COc1ccc2c(Sc3ccc(Cl)cc3)c(C(=O)NCCCN3CCCCC3)[nH]c2c1  maximum response (SARS-CoV-2; cytopathic effect; USA_WA1/2020; retest, 8-point, duplicates): 90.1%
Cc1nc2n(n1)CC(=O)N[C@@H](C(C)C)CN(C(=O)CO)CC(=O)N[C@@H](CC(C)C)c1nc(cs1)C(=O)N[C@H]2Cc1ccccc1  remaining activity (Lassa mammarenavirus; viral replication; Huh-7; 10 µM, 72 h): 105%
COc1ccc(C[C@@H]2c3cc(Oc4cc(C[C@@H]5c6cc(O)c(OC)cc6CCN5C)ccc4O)c(OC)cc3CCN2C)cc1  inhibition (SARS-CoV-2; cytopathic effect; Vero E6; 100 µM, replicate run): 75%
O=C(Nc1ccc(N2CCN(C(=O)c3cnccn3)CC2)nc1)c1ccc(Cl)cc1Cl  IC90 (Mycobacterium tuberculosis; bacterial growth; H37Ra-lux; 168 h): > 64 µM
Cc1cccn2c(=O)c3cc(C(=O)Nc4ccc(N(C)C)cc4)n(C)c3nc12  EC90 (Severe acute respiratory syndrome coronavirus 2; viral replication, inhibitor, qPCR; Vero C1008): 3.8 µM
CC(Cc1ccsc1)Nc1ncnc2sccc12 (centres unmarked)  remaining activity (Lassa mammarenavirus; viral replication; Huh-7; 10 µM, 72 h): 23%
CCn1c2ccccc2c2cc(CN3CCN(Cc4cccc(Cl)c4)CC3)ccc21  AC50 (SARS-CoV-2; cytopathic effect, cell-based CPE; USA_WA1/2020; round 2, 5-point dilution): 12.6 µM
Cn1c(=O)ccc2ccc(F)c(CCNC[C@H]3CN(c4cnc5c(n4)NC(=O)CO5)C(=O)O3)c21  MIC50 (Francisella tularensis; microbial growth): < 0.015 µg/mL
COc1ccc(Nc2nc(Nc3ccc(OC)cc3OC)nc(N3CCOCC3)n2)c(OC)c1  AC50 (SARS-CoV-2; cytopathic effect, cell-based CPE; USA_WA1/2020; round 2, 5-point dilution): 3.16 µM
Cc1nc2n(n1)CC(=O)N[C@@H](C(C)C)CN(C(=O)c1ccncc1)CC(=O)N[C@@H](CC(C)C)c1nc(cs1)C(=O)N[C@H]2Cc1ccccc1  remaining activity (Lassa mammarenavirus; viral replication; Huh-7; 10 µM, 72 h): 100%
CN(C)c1ccc(-c2nc(-c3cccs3)c(-c3cccs3)[nH]2)cc1  AC50 (SARS-CoV-2; cytopathic effect, cell-based CPE; USA_WA1/2020; round 1, 5-point dilution): 12.6 µM
c1ccc(C(O[C@@H]2CCCN(CCc3ccc4c(c3)OCO4)C2)c2ccccc2)cc1  EC50 (SARS-CoV-2; viral replication, GFP plate reader screen; cell-based): > 100 µM
CCc1ccc(Sc2cc(C(=O)NCCCN3CCC(C)CC3)c3ccccc3n2)cc1  efficacy (SARS-CoV-2; cytopathic effect; USA_WA1/2020; round 1, 5-point): 62.4%
Nc1ncc(Cc2ccccc2)s1  MIC (Histoplasma capsulatum; microbial growth): > 20 µM

For quick reference, copied from above:
COc1ccc2cc1Oc1ccc(cc1)C[C@H]1c3c(cc4c(c3Oc3cc5c(cc3OC)CCN(C)[C@@H]5C2)OCO4)CCN1C  viral load (African swine fever virus; pig, organs and swabs; dose not given): no effect
c1ccc(C(O[C@@H]2CCCN(CCc3ccc4c(c3)OCO4)C2)c2ccccc2)cc1  EC50 (SARS-CoV-2; viral replication, GFP plate reader screen; cell-based): > 100 µM
COc1ccc2c(Sc3ccc(Cl)cc3)c(C(=O)NCCCN3CCCCC3)[nH]c2c1  maximum response (SARS-CoV-2; cytopathic effect; USA_WA1/2020; retest, 8-point, duplicates): 90.1%
